Published values gathered from unrelated publications.
Every numbered part comes from another study and shows a few of its results, in no order.

Series 1 — method: RNA Bind-n-Seq; form: RNA; sample: in vitro; tested at: 200 nM; notes: whole 134-nt RNA, ends assumed; with: 150 mM LiCl; reference: input library; reading: higher = stronger binding; endpoint: log2 enrichment; library: 7-deaza-guanosine replaces G
Target: Ras GTPase-activating protein-binding protein 1, full length (G3BP1, Homo sapiens, UniProt Q13283)
Sequence of UniProt Q13283 (whole entry, looked up): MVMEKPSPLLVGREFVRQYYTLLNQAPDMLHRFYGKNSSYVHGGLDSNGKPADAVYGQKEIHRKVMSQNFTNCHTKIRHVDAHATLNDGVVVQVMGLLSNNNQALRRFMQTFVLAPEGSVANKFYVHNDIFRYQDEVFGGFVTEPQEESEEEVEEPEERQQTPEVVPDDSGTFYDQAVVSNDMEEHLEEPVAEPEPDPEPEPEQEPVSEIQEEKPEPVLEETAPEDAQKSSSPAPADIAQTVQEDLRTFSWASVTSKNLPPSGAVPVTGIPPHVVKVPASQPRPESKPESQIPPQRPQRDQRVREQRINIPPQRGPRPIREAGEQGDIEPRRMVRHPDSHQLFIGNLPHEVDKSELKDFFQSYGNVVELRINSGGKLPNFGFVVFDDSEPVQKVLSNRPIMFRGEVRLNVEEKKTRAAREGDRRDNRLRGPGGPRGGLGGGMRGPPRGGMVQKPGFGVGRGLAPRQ
Constant ends, left off below: GGGAGUUCUACAGUCCGACGAUC … UGGAAUUCUCGGGUGUCAAGG
Sequence = UUUUCAUACCGAUCUAGAGUUCGUCCUUGCGUGGUUUAUGGUGGUGCCGAUAUUGGUCAGCAGAUUCGAGACUUGGAACGUGGAUGCCAU; result = -0.316
Sequence = AGUCCUGUGCUACACAUCGUAUGUACCGAAUCGGGGAAAGGGGUUUUUGGGGAGGGGAAAGUAUUAUGUUACGCCGUUCGGAUCUGCACU; result = -0.397
Sequence = UCCUGUGCUACACAUCGUAUGUACCGAAUCGGGUUUUUGGGUUUUUUUGGGUUUUUGGGAAAGUAUUAUGUUACGCCGUUCGGAUCUGCA; result = 0.682
Sequence = GUCCUGUGCUACACAUCGUAUGUACCGAAUCGGGCCCCCGGGCCCCCGGGCCCCCGGGGAAAGUAUUAUGUUACGCCGUUCGGAUCUGCA; result = -1.68
Sequence = CCUGUGCUACACAUCGUAUGUACCGAAUCGGGGAAAAAAAGGAAAAAAAGGAAAAAAAGGAAAGUAUUAUGUUACGCCGUUCGGAUCUGC; result = -0.134
Sequence = UUCCCUGUACCGGCAGAGUUCACAAACACAUUUGAAGAGGCUUUUUCUCAGGAUUCUUAACCUUCCCAAAGGAAGUCCCAUGGAUGGGUU; result = -1.13
Sequence = AAGUCCUGUGCUACACAUCGUAUGUACCGAAUCGGAAAAGGGAAAAGGGGAAAAGGGAAAGUAUUAUGUUACGCCGUUCGGAUCUGCACU; result = 0.22
Sequence = GCAGGAAGUAAAAACAAAUGGAAAUGCUUCGGAUAGUGGCAGGGGUGGGGGUUGCUAAGGUAAGGGUGGGAUGGGAGUGGGUAAAGAGUU; result = 0.265
Sequence = UGAGAGGUGGAUUUUGUUUAUUUUUUUAGCUCAUUUCCAGGGGUGGGAAUUUUUUUUUAAUAUGUGUCAUGAAUAAAGUUGUUUUUGAAA; result = -0.135
Sequence = UGGGAGGUGGAUUUUGUUUAUUUUUUUAGCUCAUGUCCAGGGGUGGGAAUUUUUUUUUAAUAUGUGUCAUGAAUAAAGUUGUUUUUGAAA; result = -0.195
Sequence = GCAGGAAGUAAAAACAAAUGGAAAUGCCUCGGAUAGUGGCAGGGGUGGGGGUUGCUAAGGAAAGGGUGGGAUGGGAGUGGGUAAAGAGUU; result = 0.17

Series 2 — method: EMSA with sequencing; form: double-stranded DNA, one strand shown; sample: in vitro; tested at: 10 and 20 nM; reference: negative control set to 0; reading: higher = stronger binding; endpoint: normalised bound fraction
Target: Hepatocyte nuclear factor 3-alpha (Foxa1, Mus musculus, UniProt P35582, residues 1-468, full length assumed)
Notes: whole designed probe, mean of two concentrations, ends assumed
Constant ends, left off below: GTGAGCGGTGCCCATTGATGGGGAAC … TTTCACTGGGATCGTGGGGAC
Residues (chain): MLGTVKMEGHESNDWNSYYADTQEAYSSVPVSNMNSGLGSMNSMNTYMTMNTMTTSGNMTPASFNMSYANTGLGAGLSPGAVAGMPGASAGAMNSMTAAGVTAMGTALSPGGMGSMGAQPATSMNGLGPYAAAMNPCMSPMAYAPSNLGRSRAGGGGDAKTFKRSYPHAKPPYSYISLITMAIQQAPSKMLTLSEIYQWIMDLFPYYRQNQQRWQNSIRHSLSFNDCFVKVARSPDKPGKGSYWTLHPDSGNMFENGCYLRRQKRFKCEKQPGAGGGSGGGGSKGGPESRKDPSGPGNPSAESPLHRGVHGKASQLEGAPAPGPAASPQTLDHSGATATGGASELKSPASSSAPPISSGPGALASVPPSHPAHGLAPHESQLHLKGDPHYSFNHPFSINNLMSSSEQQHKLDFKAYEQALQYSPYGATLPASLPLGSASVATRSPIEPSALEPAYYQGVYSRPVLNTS
Sequence = AATAGAATAAAAAAAATAGATTACACCATTTTAACAAATAGAGTCTATCACATAGTGTGAATGTGTGCCTGAATGTATGCACTGAGTCATAATATAAACATGCGTTTTCTGTGGGTTGTGGTCACTGCATGAAGGGAATTATCTGAGATCACTTGGCTATAGGGAAGTTAGACTTCATGGTTATTGTCTACTA; result = 0.161 ratio
Sequence = TATCTTCTCCCCATTTATTAATTCACATATTTACATCAGCTTGGAGTTATTGATTTCTATTTTATTAAATAGTTTATAATTGATTACCATCCTAAATTATTTTAATGCTCAAATTGTCCCAAATTATGGCCAAAGAAAGCTCCTTCAAACTGGTTGCTATGTCCTTTTGACATGGCCCATCATTCTTTAAACA; result = 0.0541 ratio
Sequence = GACGGGCACCAGGAGCCCTGTGTCCTCTGCCTTGCAGGTGTTTAGGGAACATTGTTCAGACTGGAAGGAAGAGCGAGCTCAAAATGCCCTTTCTGTTTACTCTGCTGGGAAGGATATGAAGCCAAACAGAACCAGCTACGGGAGTCTTTCGACCGCAAGACAAAAGGTCCTTTGCCCCCACTACCTGCAACTT; result = 0.266 ratio
Sequence = CTTTACCCTCCATGTTACAGGATTTTTTAAAAGAGTATCATTATATACAAAAAGTTAGAGTTCGCTGGTTAGAATGAGAACCATTCAAGGCAAAGTAATCTTAAACTCTCCTGTCCCAAAGGGTGTTAACTAGGTCCGCTTTCATGTGCATCAGACGATACACCTATAGCAAGCACACACAGCAGTGCTAGGC; result = -0.0462 ratio
Sequence = CTGTAGCCTTTGCAAATAACCTTTTTGAACAAAAACGGCAAAGGCTCTTTCCAAACCCGATCAAAGAGGTATGCAAGACTCTCAGCCACTAAATAAACATTGATGCCTGATGGCAGTAATATGGCTATTTATATTCAGAGCCTGATTTAACCAGTGGCATTCCTGTAATAAGATAATAAGCATGAGCTGTTTA; result = 0.498 ratio
Sequence = GGGCCCAGCTGGAGCCTGAAGATACTGGGCTCCACCCAACATGTTGGGTGAGGGAAACTGGGCCATATTAGGAATTGCACAAAGATCTCAATGTAATCTGGAGCTGAACTGCAACCTGGGCATAAAGGAGAAACTGGATGTTTGGGTCCATAAGGCAGAGAAATGTTTGAGAACTTGTCTCAAAATTCTTCTG; result = -0.0169 ratio
Sequence = CTCCAGGGTAGTTGTCCTTCCTGTGGCTGCTCACTGATCCAGGCTACTTTGATCTTGTGACTCAAAGTTCAACAAAATGTGGATGCGTCATTTTATTTACACTTCAATGGCCAGAACTTACGAAATGGCCTCATCCAGTTGCAAGAAGTTTGGGAAATGTAGCCTTCCATATTTACAGGAATAAATGAAAAAC; result = 0.254 ratio
Sequence = TCTTTCACTCAAGTGGTATATCCCACAGCCCTAAAGAAGCAAGGGAAATAAGAATTAGAACTAGACATCCCAGGAGACAAAGAATTCAACAAAGCAAACACACTACGTGCTTAACCAATCCCTTCACTATTTACAGAAAATCTCTCTGGCTCAGGCCGGGCAGTGAGTTCATTTATTTCAACAAAATCAAAGA; result = 0.289 ratio

Series 3 — method: protein-binding microarray; form: double-stranded DNA, one strand shown; sample: in vitro; tested at: 940 nM top; notes: 60-bp whole probe; with: salmon DNA 0.4 mg/ml; reference: random background probes; reading: higher = stronger binding; endpoint: fitted relative affinity; constant ends, left off below: GCCTAGCAC … GTCTTGATTCGCTTGACGCTGCTG
Target: Interferon regulatory factor 5, full length, phosphomimetic (IRF5, Homo sapiens, UniProt Q13568-2, residues 1-514, S451D/S453D/S456D/S462D)
Sequence = GTCGATTTCAGTCTCGAGACGTGCTAG; result = 3.28 z-score
Sequence = TCATCTCGGAGATCTCGAACTGTGCTA; result = 0.662 z-score
Sequence = AGCAAGCCCCTTCCTTTCGGGTGCTAG; result = -0.125 z-score
Sequence = TTAGGTATCGACTATCGGTAAGTGCTA; result = 6.18 z-score
Sequence = GTGTATATGACAATGATGTTGTGCTAG; result = 0.153 z-score
Sequence = TCAACTTTCTATCTCTGACTGTGCTAG; result = 1.9 z-score
Sequence = GACGGACTCCTTTTCCTGACGTGCTAG; result = 0.335 z-score
Sequence = TTAGAACTGGGAACTGGATTAGTGCTA; result = -0.39 z-score
Sequence = ATTTTTTTGCATTGCTTCTAGTGCTAG; result = 0.434 z-score
Sequence = GACGGTTTCGGTTTCGCGACGTGCTAG; result = 14.2 z-score
Sequence = GACGATTCCAGTCTCGAGACGTGCTAG; result = 1.46 z-score
Sequence = GACGGTTCCTTTTTCCTGACGTGCTAG; result = 0.753 z-score
Sequence = GACGGTTTCGAGACTGGGGACGTGCTA; result = 6.41 z-score
Sequence = TTAGAACTGAGACCGGATTAGTGCTAG; result = -0.508 z-score
Sequence = TCAATTCTAGCCTATAGAACTGTGCTA; result = -0.123 z-score
Sequence = GACGGTTTCCACACTGGGGACGTGCTA; result = 0.587 z-score
Sequence = TTAGGTTTCCTTTCACTTTAGTGCTAG; result = 3.1 z-score
Sequence = TTGCCTCTGCTGCTGGCCGCGTGCTAG; result = -0.705 z-score
Sequence = AGTTAATCCCTCTCAGGCATGTGCTAG; result = 0.278 z-score
Sequence = TAAGGTATCGGACTGGGTTAGTGCTAG; result = 1.94 z-score
Sequence = TTAGGTTTCAGTTTCGATTAGTGCTAG; result = 11.4 z-score
Sequence = GACGGTATCGGGTATCAGGACGTGCTA; result = 4.57 z-score
Sequence = TCATGTTTGGTTCTTATACTGTGCTAG; result = 1.24 z-score
Sequence = TCAAACATCCCAATGGCACTGTGCTAG; result = 0.413 z-score
Sequence = TTAGGACTGGGACGGGGTTAGTGCTAG; result = 0.000469 z-score

Series 4 — method: protein binding microarray; form: double-stranded DNA, one strand shown; sample: in vitro; tested at: not given; reference: not given; reading: higher = stronger binding; endpoint: E-score
Target: Histone acetyltransferase KAT6A, winged helix 2, GST fusion (KAT6A, Homo sapiens, UniProt Q92794, residues 85-181)
Notes: 8-mer, flanks averaged, mean of 2 arrays, mostly near background
Residues (chain): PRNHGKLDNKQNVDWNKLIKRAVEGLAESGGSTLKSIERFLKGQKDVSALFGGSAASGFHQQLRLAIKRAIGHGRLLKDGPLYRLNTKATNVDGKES
Sequence = ATTTGAAC; result = -0.0304
Sequence = ACAGGTTG; result = -0.182
Sequence = GCACTCAA; result = -0.0811
Sequence = AGCATCCT; result = -0.0725
Sequence = GAAAGCGA; result = 0.133
Sequence = CGAGATGA; result = 0.0477
Sequence = GCCGGGGA; result = 0.0397
Sequence = AGGAGATC; result = 0.0153
Sequence = GAACACCC; result = 0.061
Sequence = ACTGCTCA; result = 0.165
Sequence = TCCTGTCA; result = 0.0225
Sequence = GGTCGCCA; result = -0.048
Sequence = GATAAATA; result = -0.0372
Sequence = AAGACTCC; result = -0.142
Sequence = GCTATCAA; result = 0.185
Sequence = CACCTGTC; result = -0.0797
Sequence = TACATGCA; result = -0.0703
Sequence = ACTTAGCA; result = -0.039

For quick reference, copied from above (series 3):
Sequence = GACGGTTTCGGTTTCGCGACGTGCTAG; result = 14.2 z-score
Sequence = GACGGTTCCTTTTTCCTGACGTGCTAG; result = 0.753 z-score
Sequence = TTAGGACTGGGACGGGGTTAGTGCTAG; result = 0.000469 z-score
Sequence = GACGGTATCGGGTATCAGGACGTGCTA; result = 4.57 z-score
Sequence = TTAGAACTGAGACCGGATTAGTGCTAG; result = -0.508 z-score
Sequence = TCATGTTTGGTTCTTATACTGTGCTAG; result = 1.24 z-score
Sequence = GACGGTTTCGAGACTGGGGACGTGCTA; result = 6.41 z-score
Sequence = GTGTATATGACAATGATGTTGTGCTAG; result = 0.153 z-score
Sequence = TCAATTCTAGCCTATAGAACTGTGCTA; result = -0.123 z-score
Sequence = AGCAAGCCCCTTCCTTTCGGGTGCTAG; result = -0.125 z-score
